# Assay results from different studies.
# Every numbered part comes from another study and shows a few of its results, in no order.
# Sequence of UniProt Q15349 (whole entry, looked up): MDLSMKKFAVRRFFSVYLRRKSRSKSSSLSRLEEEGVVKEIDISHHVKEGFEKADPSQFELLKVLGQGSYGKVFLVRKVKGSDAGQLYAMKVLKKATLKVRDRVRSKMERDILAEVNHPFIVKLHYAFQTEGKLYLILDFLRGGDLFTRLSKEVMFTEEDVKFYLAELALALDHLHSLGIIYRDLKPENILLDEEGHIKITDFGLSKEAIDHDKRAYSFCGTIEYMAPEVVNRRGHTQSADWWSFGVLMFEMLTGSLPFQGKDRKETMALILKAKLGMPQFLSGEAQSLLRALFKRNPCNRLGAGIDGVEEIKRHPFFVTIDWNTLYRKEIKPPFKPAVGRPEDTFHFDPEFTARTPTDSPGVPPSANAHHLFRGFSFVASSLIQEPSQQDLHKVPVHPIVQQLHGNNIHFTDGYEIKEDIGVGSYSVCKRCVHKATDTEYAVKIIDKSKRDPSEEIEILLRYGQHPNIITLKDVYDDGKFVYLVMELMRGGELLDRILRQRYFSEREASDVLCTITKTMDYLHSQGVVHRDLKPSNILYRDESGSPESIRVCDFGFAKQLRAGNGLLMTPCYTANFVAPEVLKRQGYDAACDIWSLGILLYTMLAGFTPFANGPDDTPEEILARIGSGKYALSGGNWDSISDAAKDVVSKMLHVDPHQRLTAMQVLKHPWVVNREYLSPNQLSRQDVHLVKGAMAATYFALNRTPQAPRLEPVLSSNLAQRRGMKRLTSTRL
# Sequence of UniProt P36507 (whole entry, looked up): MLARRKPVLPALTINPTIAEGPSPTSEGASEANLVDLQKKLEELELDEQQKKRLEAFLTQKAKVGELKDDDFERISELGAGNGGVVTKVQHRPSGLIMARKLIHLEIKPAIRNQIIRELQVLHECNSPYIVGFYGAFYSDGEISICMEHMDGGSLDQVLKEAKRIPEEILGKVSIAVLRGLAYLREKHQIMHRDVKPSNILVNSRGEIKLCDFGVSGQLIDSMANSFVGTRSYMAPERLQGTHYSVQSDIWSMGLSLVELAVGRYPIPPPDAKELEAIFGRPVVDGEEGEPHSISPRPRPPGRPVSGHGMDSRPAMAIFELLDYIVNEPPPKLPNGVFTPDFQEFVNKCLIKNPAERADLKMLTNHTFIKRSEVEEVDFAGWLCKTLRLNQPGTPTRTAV
# Sequence of UniProt P49840 (whole entry, looked up): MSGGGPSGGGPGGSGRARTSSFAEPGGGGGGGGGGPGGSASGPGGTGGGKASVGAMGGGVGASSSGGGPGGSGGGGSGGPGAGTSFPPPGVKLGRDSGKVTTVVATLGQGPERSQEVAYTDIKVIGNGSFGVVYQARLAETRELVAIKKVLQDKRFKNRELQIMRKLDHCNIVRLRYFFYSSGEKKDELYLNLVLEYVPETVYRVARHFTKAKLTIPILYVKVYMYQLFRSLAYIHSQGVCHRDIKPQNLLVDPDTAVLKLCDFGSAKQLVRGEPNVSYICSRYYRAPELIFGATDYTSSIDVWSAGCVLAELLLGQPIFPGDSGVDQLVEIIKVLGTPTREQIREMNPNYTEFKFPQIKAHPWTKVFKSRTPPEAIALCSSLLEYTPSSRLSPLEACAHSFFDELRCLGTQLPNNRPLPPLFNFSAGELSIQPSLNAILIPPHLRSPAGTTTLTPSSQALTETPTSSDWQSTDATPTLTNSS
# Sequence of UniProt P52333 (whole entry, looked up): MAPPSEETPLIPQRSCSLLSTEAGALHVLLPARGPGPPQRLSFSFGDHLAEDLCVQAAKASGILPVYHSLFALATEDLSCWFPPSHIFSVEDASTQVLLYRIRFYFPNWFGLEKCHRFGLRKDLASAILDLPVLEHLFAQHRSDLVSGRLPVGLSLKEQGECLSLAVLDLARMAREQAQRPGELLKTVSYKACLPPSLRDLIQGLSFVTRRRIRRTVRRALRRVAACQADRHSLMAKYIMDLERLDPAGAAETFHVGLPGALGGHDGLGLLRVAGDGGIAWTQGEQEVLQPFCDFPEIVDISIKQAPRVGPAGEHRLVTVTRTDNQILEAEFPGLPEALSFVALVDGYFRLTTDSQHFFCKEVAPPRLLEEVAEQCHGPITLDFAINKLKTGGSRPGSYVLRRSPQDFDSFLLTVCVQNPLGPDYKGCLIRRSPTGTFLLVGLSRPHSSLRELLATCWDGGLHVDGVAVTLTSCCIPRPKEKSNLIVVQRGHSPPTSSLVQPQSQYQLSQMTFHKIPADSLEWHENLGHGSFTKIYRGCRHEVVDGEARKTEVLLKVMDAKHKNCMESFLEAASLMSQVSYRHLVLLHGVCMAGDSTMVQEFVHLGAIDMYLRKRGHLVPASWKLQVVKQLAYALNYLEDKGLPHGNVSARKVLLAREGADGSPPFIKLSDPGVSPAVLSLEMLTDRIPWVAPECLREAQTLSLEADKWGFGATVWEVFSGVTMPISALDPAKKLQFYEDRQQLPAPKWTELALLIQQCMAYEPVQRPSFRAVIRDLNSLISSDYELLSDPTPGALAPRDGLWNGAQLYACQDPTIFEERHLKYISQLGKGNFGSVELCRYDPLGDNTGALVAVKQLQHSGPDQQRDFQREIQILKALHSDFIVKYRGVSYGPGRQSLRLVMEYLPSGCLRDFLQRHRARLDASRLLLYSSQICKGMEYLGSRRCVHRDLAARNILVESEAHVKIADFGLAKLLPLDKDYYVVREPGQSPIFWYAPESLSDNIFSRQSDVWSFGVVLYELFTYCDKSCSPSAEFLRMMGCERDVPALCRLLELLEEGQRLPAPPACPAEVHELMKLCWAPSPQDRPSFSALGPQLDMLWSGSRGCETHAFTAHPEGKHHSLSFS
# Sequence of UniProt Q6P3R8 (whole entry, looked up): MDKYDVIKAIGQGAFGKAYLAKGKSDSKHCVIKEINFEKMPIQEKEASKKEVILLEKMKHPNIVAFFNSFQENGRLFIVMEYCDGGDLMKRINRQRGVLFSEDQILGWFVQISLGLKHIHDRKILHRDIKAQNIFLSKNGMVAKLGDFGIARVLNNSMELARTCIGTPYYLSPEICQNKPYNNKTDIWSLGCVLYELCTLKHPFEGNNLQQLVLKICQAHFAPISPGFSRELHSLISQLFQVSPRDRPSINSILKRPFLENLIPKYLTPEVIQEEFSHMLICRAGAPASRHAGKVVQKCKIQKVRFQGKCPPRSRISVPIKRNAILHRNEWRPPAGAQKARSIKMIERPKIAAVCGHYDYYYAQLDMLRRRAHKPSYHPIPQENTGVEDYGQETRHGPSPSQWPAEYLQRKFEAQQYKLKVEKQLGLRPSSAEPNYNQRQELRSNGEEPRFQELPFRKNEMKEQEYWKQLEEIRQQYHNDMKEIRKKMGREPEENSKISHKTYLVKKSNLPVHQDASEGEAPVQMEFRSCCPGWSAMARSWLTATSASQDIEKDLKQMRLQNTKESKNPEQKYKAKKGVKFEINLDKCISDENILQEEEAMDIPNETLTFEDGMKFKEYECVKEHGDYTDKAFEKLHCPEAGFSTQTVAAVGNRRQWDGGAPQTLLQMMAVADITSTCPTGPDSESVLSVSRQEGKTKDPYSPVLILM
# Sequence of UniProt P05771 (whole entry, looked up): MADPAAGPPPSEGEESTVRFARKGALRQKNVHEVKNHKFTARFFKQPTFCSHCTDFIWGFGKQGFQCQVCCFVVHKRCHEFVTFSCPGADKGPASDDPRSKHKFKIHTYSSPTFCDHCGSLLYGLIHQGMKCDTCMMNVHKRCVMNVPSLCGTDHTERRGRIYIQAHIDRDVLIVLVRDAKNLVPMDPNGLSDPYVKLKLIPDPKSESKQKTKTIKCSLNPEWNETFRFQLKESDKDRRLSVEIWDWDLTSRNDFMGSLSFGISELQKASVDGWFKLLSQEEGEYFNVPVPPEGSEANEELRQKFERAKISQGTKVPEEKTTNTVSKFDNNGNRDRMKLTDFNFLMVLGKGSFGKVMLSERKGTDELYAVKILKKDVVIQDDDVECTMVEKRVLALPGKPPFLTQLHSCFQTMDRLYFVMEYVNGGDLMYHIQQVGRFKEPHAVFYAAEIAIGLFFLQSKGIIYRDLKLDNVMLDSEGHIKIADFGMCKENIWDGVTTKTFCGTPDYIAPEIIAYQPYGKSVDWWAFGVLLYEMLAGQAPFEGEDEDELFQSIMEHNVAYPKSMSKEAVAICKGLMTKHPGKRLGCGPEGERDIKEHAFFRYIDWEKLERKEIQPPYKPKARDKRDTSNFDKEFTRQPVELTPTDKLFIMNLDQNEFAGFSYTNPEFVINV
# Sequence of UniProt Q16539 (whole entry, looked up): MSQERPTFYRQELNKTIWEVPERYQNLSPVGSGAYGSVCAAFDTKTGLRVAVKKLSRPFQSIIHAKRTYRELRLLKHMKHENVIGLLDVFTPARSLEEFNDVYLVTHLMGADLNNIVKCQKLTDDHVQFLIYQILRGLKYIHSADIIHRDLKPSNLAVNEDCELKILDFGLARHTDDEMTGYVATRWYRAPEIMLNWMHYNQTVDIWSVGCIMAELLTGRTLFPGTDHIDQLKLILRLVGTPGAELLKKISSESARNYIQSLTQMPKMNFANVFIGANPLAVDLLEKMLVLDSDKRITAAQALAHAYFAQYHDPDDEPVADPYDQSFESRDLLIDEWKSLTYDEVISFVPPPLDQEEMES

# Series 1 — read-out: enzyme activity; concentration: 10 µM; reference: untreated control
# Compound: Cc1sc(C(=O)NC2COC2)cc1-n1cc(NC(=O)Nc2c(F)cccc2Cl)cn1
target,remaining activity
"Serine/threonine-protein kinase PLK2 (PLK2, Homo sapiens, UniProt Q9NYY3)",93.2%
"Tyrosine-protein kinase JAK3 (JAK3, Homo sapiens, UniProt P52333)",95.2%
"Muscle, skeletal receptor tyrosine-protein kinase (MUSK, Homo sapiens, UniProt O15146)",102%
"Testis-specific serine/threonine-protein kinase 6 (TSSK6, Homo sapiens, UniProt Q9BXA6)",87.6%
"Protein kinase C beta type, isoform beta-II (PRKCB, Homo sapiens, UniProt P05771)",96.8%
"Dual specificity mitogen-activated protein kinase kinase 2 (MAP2K2, Homo sapiens, UniProt P36507)",97.5%
"MAP/microtubule affinity-regulating kinase 4 (MARK4, Homo sapiens, UniProt Q96L34)",108%

# Series 2 — concentration: 1 µM
# SMILES: CCCCN(CCCC)C(=O)CN1C[C@@H](c2cc(OC)c3c(c2)OCO3)[C@H](C(=O)O)[C@H]1CC(C)(C)CCC
target,read-out,technique,setting,reference,remaining binding [%]
"Glycogen synthase kinase-3 alpha (GSK3A, Homo sapiens, UniProt P49840)",cell-free assay,competition with immobilised ligand,,,79.9
"Serine/threonine-protein kinase Nek5 (NEK5, Homo sapiens, UniProt Q6P3R8)",cell-free assay,competition with immobilised ligand,,,87.9
"Cyclin-dependent kinase 11A (CDK11A, Homo sapiens, UniProt Q9UQ88)",cell-free assay,competition with immobilised ligand,,,98.3
"TGF-beta receptor type-1 (TGFBR1, Homo sapiens, UniProt P36897)",cell-free assay,competition with immobilised ligand,,,100
"AP2-associated protein kinase 1 (AAK1, Homo sapiens, UniProt Q2M2I8)",,KINOMEscan,,control,100
"Tyrosine-protein kinase ABL1, phosphorylated (ABL1, Homo sapiens, UniProt P00519, Y253F)",cell-free assay,competition with immobilised ligand,,,100
"Tyrosine-protein kinase ABL1 (ABL1, Homo sapiens, UniProt P00519, F317I)",,KINOMEscan,"F317I mutant, nonphosphorylated",control,100
"Epidermal growth factor receptor (EGFR, Homo sapiens, UniProt P00533, L858R/T790M)",cell-free assay,competition with immobilised ligand,,,100
"Serine/threonine-protein kinase TAO2 (TAOK2, Homo sapiens, UniProt Q9UL54)",cell-free assay,competition with immobilised ligand,,,95.4
"Ribosomal protein S6 kinase alpha-2, N-terminal kinase domain (RPS6KA2, Homo sapiens, UniProt Q15349)",cell-free assay,competition with immobilised ligand,,,84.7
"Mitogen-activated protein kinase 14 (MAPK14, Homo sapiens, UniProt Q16539)",cell-free assay,competition with immobilised ligand,,,81.3
"Serine/threonine-protein kinase ICK (CILK1, Homo sapiens, UniProt Q9UPZ9)",cell-free assay,competition with immobilised ligand,,,83.5
"Cyclin-dependent kinase-like 5 (CDKL5, Homo sapiens, UniProt O76039)",cell-free assay,competition with immobilised ligand,,,100
"SRSF protein kinase 1 (SRPK1, Homo sapiens, UniProt Q96SB4)",cell-free assay,competition with immobilised ligand,,,62.5

# Series 3 — mode: antagonist
# Target: Beta-1 adrenergic receptor (ADRB1, Homo sapiens, UniProt P08588)
# Sequence of UniProt P08588 (whole entry, looked up): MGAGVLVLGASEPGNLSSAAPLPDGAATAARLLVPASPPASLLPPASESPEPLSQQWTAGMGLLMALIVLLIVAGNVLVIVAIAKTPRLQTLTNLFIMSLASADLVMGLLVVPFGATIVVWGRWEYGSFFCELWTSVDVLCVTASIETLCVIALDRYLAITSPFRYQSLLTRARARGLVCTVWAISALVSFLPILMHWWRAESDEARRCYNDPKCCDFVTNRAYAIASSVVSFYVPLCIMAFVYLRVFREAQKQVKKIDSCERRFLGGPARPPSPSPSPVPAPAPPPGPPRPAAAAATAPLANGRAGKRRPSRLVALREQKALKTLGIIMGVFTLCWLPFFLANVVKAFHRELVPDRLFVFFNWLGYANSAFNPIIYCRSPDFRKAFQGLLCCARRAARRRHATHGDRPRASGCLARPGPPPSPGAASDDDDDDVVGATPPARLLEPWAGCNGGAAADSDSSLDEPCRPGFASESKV
Structure (SMILES),IC50 [µM]
COc1ccccc1N1CCN(C(=O)c2ccc(-c3cccc(C(F)(F)F)c3)o2)CC1,≥ 100
O=c1cc(-c2ccccn2)oc2c(Nc3cccnc3)nccc12,≥ 100
CCNC(=O)Nc1ccc([C@@H](O)[C@H]2COCC(=O)N2Cc2ccccc2)cc1,≥ 100
CCC(=O)NCCCCC(NC(=O)OCc1ccccc1)C(=O)Nc1ccc2c(C)cc(=O)oc2c1 (centres unmarked),≥ 100
CN(C)c1ccc(-c2nnnn2[C@H]2CO[C@H]3[C@@H]2OC[C@@H]3N[S+](=O)([O-])c2ccc3ccccc3c2)cc1,≥ 100
CN(C)c1cccc(NC(=O)Cc2c[nH]c3ncc(-c4cnn(C)c4)cc23)c1,≥ 100
OC(COc1ccc(CN2CCC(F)CC2)cc1)CN1CCCCC1 (centres unmarked),≥ 100
NCC(=O)Nc1cccc(-c2nn3c(=O)cc(N4CCNCC4)nc3s2)c1,≥ 100

# Series 4 — target: panel of 300 human kinases; concentration: 0.5 µM; reading: higher = more selective
SMILES,Gini score
Cn1cnc2cc3c(Nc4cccc(Br)c4)ncnc3cc21,0.67
O=C(c1cc2cc(O)ccc2[nH]1)c1cc2cc(O)ccc2[nH]1,0.62
O=C(Nc1ccc(Cl)cc1)c1ccccc1NCc1ccncc1,0.6
O=C1Nc2ccc(Br)cc2/C1=C/c1cc2c([nH]1)CCCC2,0.59
Cc1nc(Nc2ncc(C(=O)Nc3c(C)cccc3Cl)s2)cc(N2CCN(CCO)CC2)n1,0.74
CO[C@H]1[C@@H](OC)C[C@H](C)[C@@H](OC)C2=CC(=O)C=C(NC(=O)/C(C)=C/C=C\[C@H](OC)[C@@H](OC(N)=O)/C(C)=C/[C@@H]1C)C2=O,0.64

# Excerpt of the above (series 2):
target,read-out,technique,setting,reference,remaining binding [%]
"Glycogen synthase kinase-3 alpha (GSK3A, Homo sapiens, UniProt P49840)",cell-free assay,competition with immobilised ligand,,,79.9
"Serine/threonine-protein kinase Nek5 (NEK5, Homo sapiens, UniProt Q6P3R8)",cell-free assay,competition with immobilised ligand,,,87.9
"Cyclin-dependent kinase 11A (CDK11A, Homo sapiens, UniProt Q9UQ88)",cell-free assay,competition with immobilised ligand,,,98.3
"TGF-beta receptor type-1 (TGFBR1, Homo sapiens, UniProt P36897)",cell-free assay,competition with immobilised ligand,,,100
